Experimental data of several laboratories.
Numbers after ± are the reported error.
STING1 H232R: Stimulator of interferon genes protein (STING1, Homo sapiens, UniProt Q86WV6, H232R)
Cnr2: Cannabinoid receptor 2 (Cnr2, Mus musculus, UniProt P47936)

O=C(NC1(c2nc3ccccc3[nH]2)CCN(C(=O)c2ccc([N+](=O)[O-])o2)CC1)c1ccc(-c2ccccc2)cc1 — EC50 (STING1 H232R; reporter gene, inhibitor; THP1-Dual KI-hSTING-R232; 24 h, 1 h preincubation, added: diABZI 500 nM): 26.7 µM
NCC(=O)N[C@@H](Cc1ccccc1)C(=O)N[C@@H](Cc1ccccc1)C(N)=O — EC50 (uncharacterized protein (Aplysia californica, UniProt A0ABM0K1K5); IP1 accumulation, agonist; CHO-K1 cells, transfected; inactive, value is lower bound): > 501 µM
O=S(=O)(c1ccc2c(c1)OCO2)n1cc(CCCCN2CCC(=C(c3ccc(F)c(F)c3)c3ccc(F)c(F)c3)CC2)nn1 — EC50 (ATP-dependent 6-phosphofructokinase, liver type (PFKL, Homo sapiens, UniProt P17858); enzyme activity, activator, ADP-Glo; 0.5): 0.746 µM
O=C(N[C@@H](CCCCNC(=O)c1ccc([N+](=O)[O-])o1)c1nc2ccccc2[nH]1)c1ncc(-c2ccccc2)cn1 — EC50 (STING1 H232R; reporter gene, inhibitor; THP1-Dual KI-hSTING-R232; 24 h, 1 h preincubation, added: diABZI 500 nM): 3.5 µM
CC[C@H](C)[C@@H](C(=O)N[C@@H](CC(C)C)C(=O)N[C@@H](CO)C(=O)N[C@@H](CO)C(=O)N[C@H](C(=O)N[C@@H](CCC(=O)O)C(=O)N[C@H](C(=O)NCC(=O)N[C@@H](CO)C(=O)N[C@@H](CC(N)=O)C(=O)N[C@H](C(=O)N1C[C@H](O)C[C@H]1C(N)=O)[C@@H](C)O)C(C)C)[C@@H](C)O)N(C)C(=O)[C@H](C)NC(=O)CN(C)C(=O)[C@H](Cc1ccccc1)NC(=O)[C@H](CO)NC(=O)[C@H](CO)NC(=O)[C@H](CCCNC(=N)N)NC(=O)[C@H](CCC(N)=O)NC(=O)[C@H](CC(C)C)NC(=O)[C@H](Cc1ccccc1)NC(=O)[C@H](Cc1c[nH]cn1)NC(=O)[C@H](C)NC(=O)[C@H](CC(C)C)NC(=O)[C@H](CCCNC(=N)N)NC(=O)[C@H](CCC(=O)O)NC(=O)[C@@H](NC(=O)[C@H](C)NC(=O)[C@@H]1CNC(=O)C[C@H](NC(=O)[C@H](CCCNC(=N)N)NC(=O)CC[C@H](NC(=O)CCCCCCCCCCCCCCCCCCC(=O)O)C(=O)O)C(=O)NCC(=O)N[C@@H]([C@@H](C)O)C(=O)N[C@@H](C)C(=O)N[C@@H]([C@@H](C)O)C(=O)N1)[C@@H](C)O — EC50 (Amylin receptor AMY3; CALCR/RAMP3 (Homo sapiens, UniProt O60896+P30988); cAMP accumulation, agonist; COS-7 expressing CTR and RAMP3; 15 min, 37 °C): > 0.05 µM
O=C(NCC[C@H](NC(=O)[C@H]1C[C@H](c2ccccc2)C1)c1nc2ccccc2[nH]1)c1ccc([N+](=O)[O-])o1 — EC50 (STING1 H232R; reporter gene, inhibitor; THP1-Dual KI-hSTING-R232; 24 h, 1 h preincubation, added: diABZI 500 nM): 6.4 µM
CC1=NC(C)C(C)S1 (stereo not shown) — EC50 (OR5K1 (Homo sapiens, UniProt Q8NHB7, A2T/T15M/Y193C); cAMP, agonist): 1480 µM
CC(C)(C)c1ccc(-c2ccc(C(=O)N[C@@H](CCNC(=O)c3ccc([N+](=O)[O-])o3)c3nc4ccccc4[nH]3)o2)cc1 — EC50 (STING1 H232R; reporter gene, inhibitor; THP1-Dual KI-hSTING-R232; 24 h, 1 h preincubation, added: diABZI 500 nM): 4.9 µM
COc1cc(C2C(NC(=O)c3ccc(NC(=O)OC(C)(C)C)cc3)(C(=O)O)C(c3ccc(OC(=O)c4cccs4)c(OC)c3)C2(NC(=O)c2ccc(NC(=O)OC(C)(C)C)cc2)C(=O)O)ccc1OC(=O)c1cccs1 (stereo not shown) — EC50 (Glucagon-like peptide 1 receptor (GLP1R, Homo sapiens, UniProt P43220, K197A); cAMP, agonist): 0.282 µM
O=C(N[C@@H](CCNC(=O)c1ccc([N+](=O)[O-])o1)c1nc2ccccc2[nH]1)c1ccc(-n2ccnc2)cc1 — EC50 (STING1 H232R; reporter gene, inhibitor; THP1-Dual KI-hSTING-R232; 24 h, 1 h preincubation, added: diABZI 500 nM): 25.1 µM
CCOC(=O)[C@](CC)(CCCSCCOCCOCCNC(=O)CCCCCN1C(=CC=CC=CC2=[N+](C)c3ccc4ccccc4c3C2(C)C)C(C)(C)c2c1ccc1ccccc21)NC(=O)c1ccc(C2CC2)c(Cc2ccc(F)cc2)n1 — EC50 (Cnr2; cAMP, agonist): 0.512 µM
CC(=O)c1ccc(-c2ccc(C(=O)N[C@@H](CCNC(=O)c3ccc([N+](=O)[O-])o3)c3nc4ccccc4[nH]3)o2)cc1 — EC50 (STING1 H232R; reporter gene, inhibitor; THP1-Dual KI-hSTING-R232; 24 h, 1 h preincubation, added: diABZI 500 nM): 9.8 µM
CCOC(=O)C(CC)(CCCSCCOCCN)NC(=O)c1ccc(C2CC2)c(Cc2ccc(F)cc2)n1 (stereo not shown) — EC50 (Cnr2; cAMP, agonist): 0.013 µM
Cc1cc(NC(=O)c2cccc(N)c2)ccc1Nc1nccc(-c2cccnc2)n1 — EC50 (Mitogen-activated protein kinase 8 (MAPK8, Homo sapiens, UniProt P45983); binding, NanoBRET target engagement; HEK293 live cells; 2 h, added: tracer K-5): ~0.5 µM
COc1ccc(C(=O)c2c(C(=O)NCCCN(C)C)oc3ccc(Cl)cc3c2=O)cc1OC — EC50 (Growth hormone secretagogue receptor type 1 (GHSR, Homo sapiens, UniProt Q92847); SRF-RE reporter gene; HEK293T): 0.055 µM
CCOC(=O)[C@@](CC)(CCCSCCOCCOCCN)NC(=O)c1ccc(C2CC2)c(Cc2ccc(F)cc2)n1 — EC50 (Cnr2; cAMP, agonist): 0.424 µM
CCCCCCCC/C=C\CCCCCCCC(=O)OCC(O)COP(=O)(O)O (stereo not shown) — EC50 (Lysophosphatidic acid receptor 1 (LPAR1, Homo sapiens, UniProt Q92633, W210A); G-protein dissociation, agonist, NanoBiT; human cells): 0.0648 µM
CCOC(=O)C(CC)(CCCSCCOCCOCCOCCN)NC(=O)c1ccc(C2CC2)c(Cc2ccc(F)cc2)n1 (stereo not shown) — EC50 (Cnr2; cAMP, agonist): 0.014 µM
CC1CCc2nccnc21 (stereo not shown) — EC50 (OR5K1 (Homo sapiens, UniProt Q8NHB7); cAMP luminescence, agonist; HEK293): ≥ 1500 µM
O=C(NC[C@@H](Cc1ccc(F)cc1)N1CCC(O)(C(F)(F)F)CC1)C1(c2ccc(Cl)cc2)CCCC1 — EC50 (Transient receptor potential cation channel subfamily A member 1 (TRPA1, Homo sapiens, UniProt O75762, V942A)): 0.0097 µM
N=C(NCC[C@H](NC(=O)c1ccc(-c2ccccc2)cc1)c1nc2ccccc2[nH]1)c1ccc([N+](=O)[O-])o1 — EC50 (STING1 H232R; reporter gene, inhibitor; THP1-Dual KI-hSTING-R232; 24 h, 1 h preincubation, added: diABZI 500 nM): 0.63 µM
O=C(Nn1c(-c2cccc(Cl)c2)nc2ccccc2c1=O)c1ccccc1 — EC50 (TRPM channel TRPM_PZQ (Fasciola hepatica, UniProt A0A4E0RBW4); whole-cell inward current, activator, automated patch clamp; HEK293): 0.27 ± 0.08 µM
